Measurements gathered from unrelated publications.
Each numbered part is a random draw from the data of one study; scales do not carry over between parts.

Block 1
Target: Histone acetyltransferase KAT6A, winged helix 2, GST fusion (KAT6A, Homo sapiens, UniProt Q92794, residues 85-181)
Method: protein binding microarray
Molecule type: double-stranded DNA, one strand shown
Matrix: in vitro
Concentration: not given
Setting: 8-mer, flanks averaged, mean of 2 arrays, mostly near background
Reference: not given
Direction: higher = stronger binding
Construct (chain): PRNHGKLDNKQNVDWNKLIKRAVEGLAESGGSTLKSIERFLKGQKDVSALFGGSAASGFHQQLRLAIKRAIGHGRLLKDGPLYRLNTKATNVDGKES
Strand | E-score
GACCGCTC | 0.0411
GGTGGGAA | 0.0881
ATTCGGTG | 0.138
GTCGACCA | -0.0284
AACTCTAT | -0.0122
ATGTGCGG | 0.025
GAACCTAC | 0.0489
CGCTATTC | 0.0308
GCACGATA | 0.0207
CGCCCGTC | 0.176
GCACCGAA | 0.114
GAAGGCAA | 0.234
AGTATACC | -0.0834
GGTGTTGA | -0.119
GCATCGGA | 0.106
ACATCTAT | -0.012
CTTTTCGA | 0.137
ACGGCAAC | 0.0683
GGCGCTTA | -0.0961
ATCCATTA | -0.104
CCATTCTA | -0.0626
ATTCACTA | 0.0386
GCTGTCGA | -0.0259
CCACTTCA | 0.0572

Block 2
Target: Interferon regulatory factor 7, full length, phosphomimetic (IRF7, Homo sapiens, UniProt Q92985, residues 1-503, S471D/S472D/S475D/S476D/S477D/S483D/S484D/S487D)
Chain of UniProt Q92985 (whole entry, unmodified, looked up): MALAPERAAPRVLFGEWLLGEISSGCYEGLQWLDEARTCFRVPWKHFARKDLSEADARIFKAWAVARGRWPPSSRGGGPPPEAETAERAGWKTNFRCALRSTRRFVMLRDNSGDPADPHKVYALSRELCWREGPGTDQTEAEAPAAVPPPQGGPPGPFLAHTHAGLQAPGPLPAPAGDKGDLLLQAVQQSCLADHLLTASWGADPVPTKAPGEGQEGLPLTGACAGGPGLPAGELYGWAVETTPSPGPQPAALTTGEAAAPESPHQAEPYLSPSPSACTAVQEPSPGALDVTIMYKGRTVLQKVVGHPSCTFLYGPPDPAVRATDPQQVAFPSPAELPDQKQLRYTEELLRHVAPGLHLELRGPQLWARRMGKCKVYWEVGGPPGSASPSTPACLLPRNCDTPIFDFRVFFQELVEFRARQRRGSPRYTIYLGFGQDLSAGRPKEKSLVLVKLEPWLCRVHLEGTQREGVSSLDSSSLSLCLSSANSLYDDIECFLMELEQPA
Method: protein-binding microarray
Molecule type: double-stranded DNA, one strand shown
Matrix: in vitro
Concentration: 2200 nM top
Setting: 60-bp whole probe
Added: salmon DNA 0.4 mg/ml
Reference: random background probes
Direction: higher = stronger binding
All sequences stand within: GCCTAGCAC … GTCTTGATTCGCTTGACGCTGCTG
Strand | fitted relative affinity [z-score]
GACGCACTGAGTATCGAGACGTGCTAG | 0.191
TAAGGACTGGGTCTCGGTTAGTGCTAG | -0.0325
TCAGGTTTCGACACTGGGTTAGTGCTA | 2.8
GGATTTCAGTTTCTCTTTCCGTGCTAG | 6.86
TTAGGTTTCGGTTCCGTTTAGTGCTAG | 11.3
GACGAACTGGGGTTTTGAGACGTGCTA | 0.294
GACGGTCCCCTTATCCTGACGTGCTAG | 0.781
TTAGGTCTCCTTACCCTTTAGTGCTAG | 0.783
TTAGATATCGGGTGTCGATTAGTGCTA | 0.0854
GACGGTATCCTACTGCTGTCGTGCTAG | 0.911
TAAGATATCGGGTATCGATTAGTGCTA | 0.0553
CCAGATTTCCCCACCATCTAGTGCTAG | 1.2
TTAGGACTGCTTTTCCTATAGTGCTAG | 0.805
TCTGTTGCCCGTATCTAGGTGTGCTAG | 1.43
GACGGTTTCGACACTGTGGACGTGCTA | 2.64
TTAGGTTGCGGTCTCGGTTAGTGCTAG | 0.634
TTCGGTTTCCTTTTCCTTTAGTGCTAG | 9.34
GACGATTTTAGTTTCGAGACGTGCTAG | 4.86
GACGGTTGCGGTCTCGGGACGTGCTAG | 0.158
TTAGATATCGGACTGGATTAGTGCTAG | -0.084
GACGGTATCGACTATCGGCACGTGCTA | -0.164
GACGATATCAGAATCGAGACGTGCTAG | -0.0269
GTGAGTTTGACATCTTCATCAGTGCTA | 0.679
GACGGTATCCTACTGCTGATGTGCTAG | 0.48
GACGAACTGGGGACTTGAGACGTGCTA | 0.122

Block 3
Target: RNA binding protein fox-1 homolog 2, RRM domain, GST-SBP tag (RBFOX2, Homo sapiens, UniProt O43251-10, residues 100-194)
Method: RNA Bind-n-Seq
Molecule type: RNA
Matrix: in vitro
Concentration: 365 nM
Setting: natural RNA segment, single round, ends assumed
Reference: no-protein control
Direction: higher = stronger binding
All sequences stand within: GGGAGUUCUACAGUCCGACGAUC … UGGAAUUCUCGGGUGCCAA
Construct (chain): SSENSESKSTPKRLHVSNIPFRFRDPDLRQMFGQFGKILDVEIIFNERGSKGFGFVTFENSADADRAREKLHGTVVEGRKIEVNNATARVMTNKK
Strand | RBNS enrichment (R)
GAGAACUUCACAGAGACUCUGUCCUUCCAUGCAAAGGCUUCCUGAAAUAGGGAGACUGACUGAGUAGCUCAUUCUUGUGACUUACAGUGCCAACAUUUAAAAAAGUAUGA | 0.341
UCUGUUCAAAUUUGCUUCCUUCAUGUCUUUUGAGACAGCAUCUCCUGAUUGAGUUCGCCUCACACCAGCAUCUUCCCUUAUUCUGUCUGCCUAAGCACAUAACUUUCAAG | 0.731
CUCUUGCCCUCCCUGCCUAAGAGCUACUGGGAUCACGUUAGCGGGCAUUUAGGCUUUGAUGAGAGGGCACAGUUUGAGUUAGGUUUACCUCCCCCUUUCUGUGCCUGGGA | 0.324
CGGGAACCCAUUCACUUAGCGUUUGCUCCAGUAGCUUUCCCUCUGCUACCAAUGCAGAUAAACGCGGCUUGUUUUACUCAGGCAAGAGAAUGUGAAUAGUGCCAAGAAAA | 0.363
GGAACCUUUUCUUAAAAUGAAAAUAAUUACUGCUAUUUUAAAAUUUCUUGAUCAUUGAAUGUGAGACCCUUCUAACAUGAUUUGAGAAGCUGUACAAGUAUAGGCAGAGU | 0.797
UGUGAUUUUGCCAAAGUUGUAGCUAAAUAUUUAUACACUUGUCUUGAAUUUUUUUCAGAUCCACUUAAAAUAUUUAGAAAAACAAGUUUUAUUCCUUAUGUGUCUUAUAA | 0.555
UUCGGUGUUUGGCACGAGCACUGUCUCGCUGUGGCUGUGUGUCAUGAGAACUUACCAGCAGAAAUCCUUGUUCCUAAGCUACAGAAUGACCAAAAGCUGUCAAGUCCUUA | 2.33
CCUUGUCAUUCCUAUGUACAGUAGCUGGAAGUCGCAGUGAGCAAGCAUAACCCACGUUUGUAUAAAUUAUUGAAAUCCAUUUUCACCUAAGAAUGGACUUAAGAAGUACU | 0.392
GAGCGGGAGGUGGGCAUAGACUCUAUUUUGUGUUGUAGAAGUGACAUACAGUUGGCUGCUUAACAGACUCUCUAGCCGUUCAUUUUUGUGACGUCUCUUUGUUAACCUAA | 0.398
UACCUGCCUUCCUCAACCUAAGAAGGGUUGUUAAGGCAGACCGCCCUGUUCCCCAGAGUUGUCCCUGUAGUGUCUAGGUUUAUUCUAAUGGUAAAAGUAACUUACUUAAA | 0.415
UUUUCUAGACCUGUUUUGCUUUUGUAACUUGAAGAUAUUUAUUCUGGGUUUUGUAGCAUUUUUAUUAAUAUGGUGACUUUUUAAAAUAAAAACAAACAAACGUUGUCCUA | 0.883
CUGUGUGUGUGGACGAGAAGCCAUUCACCGUAAGGGUGCAGAAAGCUCGACCAAGCCGAAUUGCAAACAACGUUCGUUCUAUUUUUAAAUGUACAGGUUCGAUCGUUUCU | 0.281

Block 4
Target: Sal-like protein 4, full length isoform B (SALL4, Homo sapiens, UniProt Q9UJQ4-2, residues 1-616)
Method: universal PBM
Molecule type: double-stranded DNA, one strand shown
Matrix: in vitro
Concentration: not given
Setting: 8-mer, flanks averaged, mean of replicates
Direction: higher = stronger binding
Target sequence (chain): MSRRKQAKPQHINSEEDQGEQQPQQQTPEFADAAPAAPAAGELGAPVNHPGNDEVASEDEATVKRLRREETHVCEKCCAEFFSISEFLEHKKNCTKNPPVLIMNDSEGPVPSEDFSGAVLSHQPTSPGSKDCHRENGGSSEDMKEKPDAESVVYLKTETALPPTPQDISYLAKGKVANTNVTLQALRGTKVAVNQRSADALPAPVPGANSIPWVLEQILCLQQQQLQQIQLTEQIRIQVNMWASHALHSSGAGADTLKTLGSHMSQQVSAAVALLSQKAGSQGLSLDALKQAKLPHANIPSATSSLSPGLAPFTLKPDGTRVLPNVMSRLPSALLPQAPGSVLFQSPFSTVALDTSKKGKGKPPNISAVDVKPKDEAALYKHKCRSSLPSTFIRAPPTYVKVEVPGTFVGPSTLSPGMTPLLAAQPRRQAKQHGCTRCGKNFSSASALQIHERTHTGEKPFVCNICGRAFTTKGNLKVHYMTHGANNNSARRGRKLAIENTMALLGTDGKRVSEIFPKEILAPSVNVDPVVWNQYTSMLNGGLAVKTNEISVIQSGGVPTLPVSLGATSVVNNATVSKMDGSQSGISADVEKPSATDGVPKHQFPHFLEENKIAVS
Strand | E-score
AGGCTCAC | -0.246
CACACATC | -0.141
TCGCCGCA | -0.143
CGCAACGA | -0.151
CACTTGAG | -0.101
TAGAGGGA | 0.0273
GAGGTTGA | 0.0641
GCCAGCAC | -0.206
ACTCTACT | 0.0651
CATACAAC | 0.143
ACACTCGA | -0.0404
CCAACTGG | -0.1
GAGAGAGA | -0.0837
ACCCCTCC | -0.266
AGGTTCAC | -0.195
GTTGTACA | 0.193
GAGGTGTA | -0.0973
ACAGTAAC | 0.0967

Other studies, line by line
Substance | target | test | system | conditions | scale | endpoint | value
PhoQ, residues 284 288 289 292 302 303 TAVSDG | PhoP, residues 12 14 15 18 19 NMSFL (Escherichia coli, UniProt P23836) | Sort-seq, refers to: YFP reporter | E. coli | PhoQ-PhoP variant library, added: 10 µM Mg2+ | reference: high Mg2+ state, higher = stronger signaling | fold induction | 17.4

For quick reference, copied from above (block 1):
Strand | E-score
GACCGCTC | 0.0411
GGTGGGAA | 0.0881
ATTCGGTG | 0.138
GTCGACCA | -0.0284
